{"data": "Measurements gathered from unrelated publications", "note": "Every numbered part comes from another study and shows a few of its results, in no order.", "chain of UniProt P07948 (whole entry, looked up)": "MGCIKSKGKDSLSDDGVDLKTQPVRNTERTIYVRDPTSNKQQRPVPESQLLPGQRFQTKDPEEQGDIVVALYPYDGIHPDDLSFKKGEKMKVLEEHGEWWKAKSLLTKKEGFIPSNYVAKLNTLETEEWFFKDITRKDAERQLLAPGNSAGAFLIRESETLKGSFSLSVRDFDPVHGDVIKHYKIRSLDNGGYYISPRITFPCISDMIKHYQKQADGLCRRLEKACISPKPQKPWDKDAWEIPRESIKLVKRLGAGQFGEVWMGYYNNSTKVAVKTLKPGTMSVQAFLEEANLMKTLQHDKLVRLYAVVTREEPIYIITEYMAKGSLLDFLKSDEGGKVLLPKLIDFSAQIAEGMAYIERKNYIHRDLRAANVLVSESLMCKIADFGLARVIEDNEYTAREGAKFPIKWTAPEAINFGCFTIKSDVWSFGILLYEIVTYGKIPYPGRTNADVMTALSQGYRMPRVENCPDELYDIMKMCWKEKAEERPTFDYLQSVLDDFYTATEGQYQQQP", "chain of UniProt Q14004 (whole entry, looked up)": "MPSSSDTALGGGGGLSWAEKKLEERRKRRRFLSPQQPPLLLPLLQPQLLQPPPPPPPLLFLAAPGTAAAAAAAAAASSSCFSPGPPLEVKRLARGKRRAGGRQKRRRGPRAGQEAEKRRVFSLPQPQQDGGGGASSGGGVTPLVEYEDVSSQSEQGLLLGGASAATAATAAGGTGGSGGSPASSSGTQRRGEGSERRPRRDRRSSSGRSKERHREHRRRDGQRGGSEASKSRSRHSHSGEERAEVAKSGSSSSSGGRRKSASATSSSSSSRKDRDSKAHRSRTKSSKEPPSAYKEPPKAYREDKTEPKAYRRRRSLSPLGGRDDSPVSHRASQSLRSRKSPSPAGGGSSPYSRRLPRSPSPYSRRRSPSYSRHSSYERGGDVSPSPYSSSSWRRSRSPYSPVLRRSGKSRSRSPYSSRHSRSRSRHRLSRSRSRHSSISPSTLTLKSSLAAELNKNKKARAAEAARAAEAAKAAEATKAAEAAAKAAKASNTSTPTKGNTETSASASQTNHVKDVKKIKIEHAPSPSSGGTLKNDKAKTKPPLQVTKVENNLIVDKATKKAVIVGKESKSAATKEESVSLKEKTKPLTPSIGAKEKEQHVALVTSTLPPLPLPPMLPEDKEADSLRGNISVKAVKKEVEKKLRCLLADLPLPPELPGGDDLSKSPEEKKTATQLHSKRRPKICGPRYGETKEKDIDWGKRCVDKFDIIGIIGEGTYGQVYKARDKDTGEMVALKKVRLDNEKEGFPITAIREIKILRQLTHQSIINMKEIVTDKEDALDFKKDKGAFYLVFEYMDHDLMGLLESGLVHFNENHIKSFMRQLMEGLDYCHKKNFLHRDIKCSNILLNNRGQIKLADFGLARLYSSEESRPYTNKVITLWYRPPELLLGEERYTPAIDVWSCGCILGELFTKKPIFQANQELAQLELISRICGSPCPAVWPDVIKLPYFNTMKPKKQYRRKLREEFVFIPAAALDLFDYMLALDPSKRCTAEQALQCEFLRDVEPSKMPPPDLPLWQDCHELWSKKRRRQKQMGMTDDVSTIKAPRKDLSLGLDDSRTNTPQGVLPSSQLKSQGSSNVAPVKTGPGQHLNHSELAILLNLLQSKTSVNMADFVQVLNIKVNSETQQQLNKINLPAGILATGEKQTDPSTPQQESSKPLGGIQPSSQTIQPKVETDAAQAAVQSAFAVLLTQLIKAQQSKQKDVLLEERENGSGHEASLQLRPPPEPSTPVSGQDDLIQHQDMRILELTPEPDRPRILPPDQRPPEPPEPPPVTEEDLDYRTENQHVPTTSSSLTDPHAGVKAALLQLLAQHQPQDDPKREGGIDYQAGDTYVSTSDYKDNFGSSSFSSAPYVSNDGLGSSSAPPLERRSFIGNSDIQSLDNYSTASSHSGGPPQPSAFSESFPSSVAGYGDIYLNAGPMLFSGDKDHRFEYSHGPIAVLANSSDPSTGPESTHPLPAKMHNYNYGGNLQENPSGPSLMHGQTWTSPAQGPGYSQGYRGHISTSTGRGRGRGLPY", "chain of UniProt Q13976 (whole entry, looked up)": "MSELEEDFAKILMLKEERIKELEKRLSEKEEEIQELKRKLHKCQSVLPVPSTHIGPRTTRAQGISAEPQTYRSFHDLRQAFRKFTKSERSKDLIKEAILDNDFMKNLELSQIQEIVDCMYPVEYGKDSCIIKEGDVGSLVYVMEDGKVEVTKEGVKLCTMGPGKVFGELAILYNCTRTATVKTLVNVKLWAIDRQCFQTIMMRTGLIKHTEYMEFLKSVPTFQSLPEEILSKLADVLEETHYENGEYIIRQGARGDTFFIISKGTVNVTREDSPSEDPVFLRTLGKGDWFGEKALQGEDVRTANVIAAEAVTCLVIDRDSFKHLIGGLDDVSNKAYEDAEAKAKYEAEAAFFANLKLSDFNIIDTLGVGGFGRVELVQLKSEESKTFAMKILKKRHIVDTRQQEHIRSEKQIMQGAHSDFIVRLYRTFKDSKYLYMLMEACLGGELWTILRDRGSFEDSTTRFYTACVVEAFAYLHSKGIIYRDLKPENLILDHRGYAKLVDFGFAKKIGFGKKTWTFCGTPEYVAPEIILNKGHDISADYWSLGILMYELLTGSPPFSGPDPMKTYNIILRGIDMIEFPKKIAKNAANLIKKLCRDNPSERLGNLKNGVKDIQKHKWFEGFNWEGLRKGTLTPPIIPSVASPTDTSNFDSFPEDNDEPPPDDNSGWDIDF", "chain of UniProt Q14164 (whole entry, looked up)": "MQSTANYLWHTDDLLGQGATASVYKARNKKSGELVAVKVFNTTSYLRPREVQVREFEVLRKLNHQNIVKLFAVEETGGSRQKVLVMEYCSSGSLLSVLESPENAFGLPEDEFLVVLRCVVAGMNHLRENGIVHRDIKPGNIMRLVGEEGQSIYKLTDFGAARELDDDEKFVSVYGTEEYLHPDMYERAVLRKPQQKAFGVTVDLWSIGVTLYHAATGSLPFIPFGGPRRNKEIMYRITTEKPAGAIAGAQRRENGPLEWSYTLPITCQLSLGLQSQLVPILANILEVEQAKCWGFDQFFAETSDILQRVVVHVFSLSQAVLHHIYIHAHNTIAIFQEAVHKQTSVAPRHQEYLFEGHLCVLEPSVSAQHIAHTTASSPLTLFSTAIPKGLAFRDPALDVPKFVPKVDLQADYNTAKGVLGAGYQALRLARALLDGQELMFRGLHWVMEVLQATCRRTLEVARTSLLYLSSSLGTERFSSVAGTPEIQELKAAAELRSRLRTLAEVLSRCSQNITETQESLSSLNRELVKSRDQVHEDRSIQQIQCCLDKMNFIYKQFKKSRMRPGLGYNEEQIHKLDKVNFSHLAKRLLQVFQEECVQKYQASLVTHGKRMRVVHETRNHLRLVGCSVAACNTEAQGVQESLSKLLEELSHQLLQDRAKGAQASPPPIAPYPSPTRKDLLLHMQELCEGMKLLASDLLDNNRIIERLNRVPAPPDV", "chain of UniProt Q00535 (whole entry, looked up)": "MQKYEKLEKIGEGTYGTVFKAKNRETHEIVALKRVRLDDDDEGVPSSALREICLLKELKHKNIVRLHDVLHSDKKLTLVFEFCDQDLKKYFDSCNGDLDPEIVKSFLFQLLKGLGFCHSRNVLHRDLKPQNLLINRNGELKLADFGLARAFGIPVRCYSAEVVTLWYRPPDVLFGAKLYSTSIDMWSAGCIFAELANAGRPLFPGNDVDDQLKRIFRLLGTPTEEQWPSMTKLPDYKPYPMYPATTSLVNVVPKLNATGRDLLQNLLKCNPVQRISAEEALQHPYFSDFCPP", "chain of UniProt Q96RR4 (whole entry, looked up)": "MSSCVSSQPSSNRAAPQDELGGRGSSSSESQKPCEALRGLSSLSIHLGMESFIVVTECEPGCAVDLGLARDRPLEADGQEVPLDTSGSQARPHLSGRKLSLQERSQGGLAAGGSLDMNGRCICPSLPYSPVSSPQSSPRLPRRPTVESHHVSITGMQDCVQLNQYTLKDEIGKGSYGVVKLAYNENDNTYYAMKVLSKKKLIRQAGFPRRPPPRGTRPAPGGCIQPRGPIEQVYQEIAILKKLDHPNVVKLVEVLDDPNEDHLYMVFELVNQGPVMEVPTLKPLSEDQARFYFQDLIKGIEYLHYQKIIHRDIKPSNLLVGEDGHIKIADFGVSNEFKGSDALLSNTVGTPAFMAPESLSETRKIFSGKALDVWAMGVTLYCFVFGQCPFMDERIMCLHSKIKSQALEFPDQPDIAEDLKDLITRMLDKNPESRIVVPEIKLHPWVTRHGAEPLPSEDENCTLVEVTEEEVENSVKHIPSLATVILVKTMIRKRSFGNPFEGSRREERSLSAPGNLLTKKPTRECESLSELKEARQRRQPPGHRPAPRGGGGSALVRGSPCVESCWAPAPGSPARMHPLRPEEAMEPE"}
{"data": "Block 1", "Structure (SMILES)": "CCN(CC)C(=O)c1ccc(Nc2nc(OCC3CCCCC3)c3[nH]cnc3n2)cc1", "observed": "enzyme activity", "mode": "inhibitor", "concentration": "0.5 µM", "reference": "control"}
{"target": "Cyclin-dependent kinase 5, with p25 (CDK5, Homo sapiens, UniProt Q00535)", "remaining activity [%]": 77.2}
{"target": "Death-associated protein kinase 2 (DAPK2, Homo sapiens, UniProt Q9UIK4)", "remaining activity [%]": 91.7}
{"target": "Calcium/calmodulin-dependent protein kinase kinase 2 (CAMKK2, Homo sapiens, UniProt Q96RR4)", "remaining activity [%]": 97.5}
{"target": "Tyrosine-protein kinase Lyn, isoform B (LYN, Homo sapiens, UniProt P07948)", "remaining activity [%]": 89.7}
{"target": "G protein-coupled receptor kinase 3 (GRK3, Homo sapiens, UniProt P35626)", "remaining activity [%]": 92.7}
{"target": "Inhibitor of nuclear factor kappa-B kinase subunit beta (IKBKB, Homo sapiens, UniProt O14920)", "remaining activity [%]": 97.3}
{"target": "Inhibitor of nuclear factor kappa-B kinase subunit epsilon (IKBKE, Homo sapiens, UniProt Q14164)", "remaining activity [%]": 77.9}
{"target": "TGF-beta receptor type-2 (TGFBR2, Homo sapiens, UniProt P37173)", "remaining activity [%]": 75.4}
{"target": "Serine/threonine-protein kinase Nek2 (NEK2, Homo sapiens, UniProt P51955)", "remaining activity [%]": 91.4}
{"target": "cGMP-dependent protein kinase 1, isoform beta (PRKG1, Homo sapiens, UniProt Q13976)", "remaining activity [%]": 96.1}
{"target": "cAMP-dependent protein kinase catalytic subunit alpha (PRKACA, Homo sapiens, UniProt P17612)", "remaining activity [%]": 93.7}
{"target": "Protein kinase C alpha type (PRKCA, Homo sapiens, UniProt P17252)", "remaining activity [%]": 82.5}
{"data": "Block 2", "cell line": "HaCaT", "concentration": "100 µM", "time": "36 h"}
{"Compound": "COc1ccc2[nH]cc(CCNC(C)=O)c2c1", "viability": "87.1%"}
{"Compound": "Cc1cc(C(C#N)c2ccc(Cl)cc2)c(Cl)cc1NC(=O)c1cc(I)cc(I)c1O (stereo not drawn)", "viability": "5.46%"}
{"Compound": "CCCc1ncc(C[n+]2ccccc2C)c(N)n1", "viability": "79%"}
{"Compound": "O[C@@H](c1cc(C(F)(F)F)nc2c(C(F)(F)F)cccc12)[C@H]1CCCCN1", "viability": "111%"}
{"Compound": "CCCCCCCCc1ccc(CCC(N)(CO)CO)cc1", "viability": "8.1%"}
{"Compound": "Cc1cccc(N(C)C(=S)Oc2ccc3ccccc3c2)c1", "viability": "83.4%"}
{"Compound": "O=C1OC2(c3ccc(O)cc3Oc3cc(O)ccc32)c2ccccc21", "viability": "176%"}
{"Compound": "Cc1cc(O)c2c(c1)C(=O)c1cccc(O)c1C2=O", "viability": "96.2%"}
{"data": "Block 3", "SMILES": "C[C@@]1(Cc2ccc(C#N)cc2)C(=O)N(c2cc(Cl)cc(Cl)c2)c2ncc(C(=O)NC3(c4nc(C5CCC5)no4)CC3)n21", "observed": "cell-free assay", "method": "competition with immobilised ligand", "concentration": "1 µM"}
{"target": "Epidermal growth factor receptor (EGFR, Homo sapiens, UniProt P00533, L858R)", "remaining binding": "100%"}
{"target": "Tyrosine-protein kinase ABL1, non-phosphorylated (ABL1, Homo sapiens, UniProt P00519, F317L)", "remaining binding": "100%"}
{"target": "Bone morphogenetic protein receptor type-1B (BMPR1B, Homo sapiens, UniProt O00238)", "remaining binding": "100%"}
{"target": "Myotonin-protein kinase (DMPK, Homo sapiens, UniProt Q09013)", "remaining binding": "100%"}
{"target": "Cyclin-dependent kinase 13 (CDK13, Homo sapiens, UniProt Q14004)", "remaining binding": "100%"}
{"target": "Epidermal growth factor receptor (EGFR, Homo sapiens, UniProt P00533, del747-750/T751S)", "remaining binding": "100%"}
{"target": "Hepatocyte growth factor receptor (MET, Homo sapiens, UniProt P08581, Y1235D)", "remaining binding": "100%"}
{"data": "Block 4", "host": "mouse", "sample": "microsomes or S9", "concentration": "2 µM", "time": "0.5 h"}
{"SMILES": "COc1ccc(C2(CNC(=O)C(F)(F)F)CCCCC2)cc1", "remaining compound": "12.5%"}
{"SMILES": "CCOc1cc(=O)n2c(c1C(=O)Nc1cccc(C(=O)OC)c1)CCCC2", "remaining compound": "42%"}
{"SMILES": "Cc1cc(C(=O)N2CCOCC2)c2c(=O)n(Cc3ccccc3C)c(=O)n(-c3ccccc3)c2n1", "remaining compound": "10.9%"}
{"SMILES": "CCOC(=O)C1CCN(c2nccc3c2OC(C)(C)C=C3)CC1", "remaining compound": "0.189%"}
{"SMILES": "O=C(c1c(F)cccc1F)N(Cc1n[nH]c(=O)[nH]1)c1ccccc1", "remaining compound": "63.7%"}
{"SMILES": "CC(C)N(C(=O)COc1nc(Cl)cc(Cl)n1)c1ccccc1", "remaining compound": "14.7%"}
{"SMILES": "CC1=NN(c2ccc3nncn3n2)C(=N)C1C(O)C(F)(F)F (stereo not drawn)", "remaining compound": "82.4%"}
{"SMILES": "N#Cc1ccccc1-c1nc2cc(Cl)ccc2c2ccnn12", "remaining compound": "0.689%"}
{"SMILES": "Cn1c(=O)n(-c2ncccc2C#N)c2ccccc21", "remaining compound": "43.4%"}
{"note": "Repeated from above (block 4):"}
{"SMILES": "CCOc1cc(=O)n2c(c1C(=O)Nc1cccc(C(=O)OC)c1)CCCC2", "remaining compound": "42%"}
{"SMILES": "Cc1cc(C(=O)N2CCOCC2)c2c(=O)n(Cc3ccccc3C)c(=O)n(-c3ccccc3)c2n1", "remaining compound": "10.9%"}
